Assay results gathered from unrelated publications.
A part holds a random share of what one study measured. Substitutions count along the parent as printed.

Study 1 — method: universal PBM; molecule type: double-stranded DNA, one strand shown; matrix: in vitro; concentration: not given; reading: higher = stronger binding
Target: Sal-like protein 4, full length isoform B (SALL4, Homo sapiens, UniProt Q9UJQ4-2, residues 1-616)
Setting: 8-mer, flanks averaged, mean of replicates
Strand | E-score
AACGACAA | 0.09
CCCAGATC | -0.313
CCCCACTC | -0.126
CACGGTAG | -0.133
GGCCGCAA | -0.251
CATGAAGC | -0.0114
AGTTATTG | 0.313
TGTCCGAA | 0.0492
CCGAGTTC | -0.151
ACCTGAGA | 0.00101
AATCATGT | 0.235
ATTAGTTG | 0.261
GGAAACTA | -0.126
ACTTATCC | 0.133
ATTCCACC | 0.0545
CCTTGCCC | -0.25
AGAGCCCC | -0.31
AGTTAGGA | 0.0536
ACAGATGG | 0.0176
GCCCTAAA | -0.0899
AATTCTGA | 0.151
CAGAAGCC | -0.159
AAACGGGA | -0.0459
AGATGTGC | 0.0427
CGTAGAAA | 0.157

Study 2 — method: DHFR PCA, deep sequencing; matrix: yeast; added: (+)-ABA 1.4 µM; baseline: wild-type fitted maximum; reading: higher = stronger binding
Target: ABI1, truncated, D143A, DHFR fusion (Arabidopsis thaliana)
Setting: methotrexate growth selection, single substitutions
Parent: PYL1, truncated, DHFR fusion (Arabidopsis thaliana); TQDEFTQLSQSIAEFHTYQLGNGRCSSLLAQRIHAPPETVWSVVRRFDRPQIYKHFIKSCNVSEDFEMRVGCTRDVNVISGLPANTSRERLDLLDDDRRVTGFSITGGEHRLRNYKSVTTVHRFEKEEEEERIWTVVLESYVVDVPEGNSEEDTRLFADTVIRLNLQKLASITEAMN; partner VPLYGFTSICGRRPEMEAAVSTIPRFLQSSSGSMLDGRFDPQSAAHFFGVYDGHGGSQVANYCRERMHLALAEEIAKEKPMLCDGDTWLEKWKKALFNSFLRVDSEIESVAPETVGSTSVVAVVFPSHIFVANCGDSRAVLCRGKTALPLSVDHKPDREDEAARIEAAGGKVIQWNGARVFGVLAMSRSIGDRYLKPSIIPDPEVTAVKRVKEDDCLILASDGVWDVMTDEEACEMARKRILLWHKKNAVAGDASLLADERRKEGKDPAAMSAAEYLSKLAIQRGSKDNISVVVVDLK
Variant | relative binding score
E152A | 49.2%
D75H | 59.7%
S87T | 22.8%
Y141D | -1.28%
D92Q | 5.32%
G21T | 54.4%
I133P | 81.6%
E147Y | 39.8%
C25F | -14%
A170I | -36.5%
G21F | -0.97%
G102T | -1.14%
Q10D | 76.7%
G108D | 3.65%
R123Y | 20.3%

Study 3 — method: RNA Bind-n-Seq; molecule type: RNA; matrix: in vitro; concentration: 365 nM; baseline: no-protein control; reading: higher = stronger binding
Target: RNA binding protein fox-1 homolog 2, RRM domain, GST-SBP tag (RBFOX2, Homo sapiens, UniProt O43251-10, residues 100-194)
Setting: natural RNA segment, single round, ends assumed
Residues (chain): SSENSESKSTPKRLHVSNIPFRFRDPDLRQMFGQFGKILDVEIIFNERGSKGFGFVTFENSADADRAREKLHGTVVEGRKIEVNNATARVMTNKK
Strand | RBNS enrichment (R)
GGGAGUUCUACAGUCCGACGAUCGCCAUGCAAAUGCCAGCAGCUUAAUGGAUUUCAUGGAAUGAAAUACCGUGAUUAACUCAUAGCUACAUAUCAUUGCAUAAAUGGGAUUUAUCUUUUUUCUCACUUAUUUUUGGAAUUCUCGGGUGCCAA | 0.456
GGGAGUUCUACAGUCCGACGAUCGGCAGCUUUCCAAAGGGCCUAAAACACCAGGACUGCCUCUGUGAAAGGCCCGAGUGGCUUUGAUGCAGUUGGUAACCACUUGAGAGCAGAGAUGUCUUAACUUGUCAGGAUGGAAUUCUCGGGUGCCAA | 0.249
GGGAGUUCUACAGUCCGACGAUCCUAGCGUAAGCACUGAGGCAGUGUGCAGUGCUCAGGCAGCAGCAAACAUUUCCCGGGGGUGGUUUUGAACCUGCUUGGGUGGUUGUGUGGUGCUGACGCUGCCACUGCCCUGGAAUUCUCGGGUGCCAA | 0.253
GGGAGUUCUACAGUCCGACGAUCCUUGGUGACAUCAUUCCAAACCUGGGGUAGCUGCCGCCCCCUGUGUCAGCCACAUACCCCCUCUCGCAGUGUUCUGAGGAAAGGAGCCUUCGGCAUAGACUCGUGUAUUUUGGAAUUCUCGGGUGCCAA | 0.289
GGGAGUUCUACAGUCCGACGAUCACUGGGCCCCAACACUGGCUUUGAGAUUUAGAGUCAAAGGGUAGAGUGAACAGGAAAGGGUCACGUGGUCCCAUGUUGCAACAGCCCCAACAUCACGCAUGUCAUUCACUUGGAAUUCUCGGGUGCCAA | 5.25
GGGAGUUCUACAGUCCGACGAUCCAUGACAUUCCAAGUUGACAUUUUUUUUUCAUUUUAAUUAAAAUUUGAAAUUCUGAACACCGUCAGCACCCUCUCUUCCCUAUCAUGGGUCAUCUGACCCCUGUCCGUCUUGGAAUUCUCGGGUGCCAA | 0.371
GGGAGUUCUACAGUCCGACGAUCGCUUAAGUGCUAAGUCAGGUGUGGAUCCACAGGAGGGUUCCAACAGAGUGUUUCCUCCACUGUAUACUGUCACAGACUAUCAUCAUUGCUUUGUGGCUGGUUUUGUUUUUUGGAAUUCUCGGGUGCCAA | 0.447
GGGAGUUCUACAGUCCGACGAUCUCUCUCAGGAGCACGUGUGAACCGUCUUCGUGCUUCAGCGAAAGCGAGUUUGAGGCAGUCUUGCAAGAUUCUCAGACUAAUUUCCAAAAGGAAACCGGAUGCCAACUUCCUGGAAUUCUCGGGUGCCAA | 0.306
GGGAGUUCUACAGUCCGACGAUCGGGGCUGUACUGGGGACUGCUCGGAUGAUCUUUCUUAGUGCUACUUCUUUCAGCUGUCCCUGUAGCGACAGGUCUAAGAUCUGACUGCCUCCUCCUUUCUCUGGCCUCUUUGGAAUUCUCGGGUGCCAA | 0.666
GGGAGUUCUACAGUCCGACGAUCAGCCAGUUCCAUCACUCAGGUAGUGCCUGAAUCAACCUUCAGAGCCUGAUUAGUCACAUAUCAUUGGAGGUCAAACGCCAUUUCCAGUGGCCUCUCUGUGUGCCCACAUGUGGAAUUCUCGGGUGCCAA | 0.334
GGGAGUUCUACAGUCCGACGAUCACAAAAGUUCUUUGUAAAGAUGCUUAUUUUACAGUUAUCUGACACAGCAGCUUGUUACCAACAUUUUAAACCAAAUACUAAAAAGGUUUUUAAAGUCCUAGUAGAAAAAGUGGAAUUCUCGGGUGCCAA | 0.341
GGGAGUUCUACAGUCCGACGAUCAUCAAAACCUUGAGGCUAAUAUUACACUCAGGCCACACUCAGCACUUGCCUCCUCUUGUUUACUGCCUUGUAUUGUAGUUAUGUGUGUAUAUGUCUGUCUUUCUCAUUAGUGGAAUUCUCGGGUGCCAA | 1.18

Study 4 — method: protein binding microarray; molecule type: double-stranded DNA, one strand shown; matrix: in vitro; concentration: not given; baseline: not given; reading: higher = stronger binding
Target: Histone acetyltransferase KAT6A, winged helix 2, GST fusion (KAT6A, Homo sapiens, UniProt Q92794, residues 85-181)
Setting: 8-mer, flanks averaged, mean of 2 arrays, mostly near background
Construct (chain): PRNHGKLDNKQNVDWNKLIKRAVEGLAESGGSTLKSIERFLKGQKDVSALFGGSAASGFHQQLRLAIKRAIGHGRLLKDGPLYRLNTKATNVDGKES
Strand | E-score
GCGCTCTA | 0.121
CGCTAACG | 0.0446
AGAGCTAA | -0.00804
TAAATTTA | 0.152
GGGCTCCA | -0.0498
AAACGCCC | 0.00621
ACCACCAA | -0.119
GAATGTGA | -0.0981
CTCAGAAC | 0.0236
AGCCCCTG | 0.119
CCACTCGA | 0.109
CCGAAACC | 0.00274
ACCCGGCG | 0.126
GCTGCTCA | 0.0283
AGATTAGC | -0.034
ACCTAGAG | -0.0464

Study 5 — method: aptamer microarray, sandwich; molecule type: DNA with 2'F-ANA; matrix: in vitro; concentration: 200 nM; added: Cy3 exosite-II aptamer, 400 nM; reading: higher = stronger binding; strand: GGTTGGTGTGGTTGG
Target: Prothrombin, mature alpha-thrombin (F2, Homo sapiens, UniProt P00734)
Setting: whole 15-mer aptamer, many near background
Modification | mean fluorescence intensity [a.u.]
2'F-ANA at 9 | 532
2'F-ANA at 3 4 6 8 12 13 14 15 | 344
2'F-ANA at 1 6 11 12 13 14 15 | 66.1
2'F-ANA at 1 2 4 6 8 9 11 13 14 | 52.4
2'F-ANA at 2 7 11 13 15 | 321
2'F-ANA at 3 4 5 6 8 9 11 12 15 | 156
2'F-ANA at 2 5 6 7 11 | 56.7
2'F-ANA at 3 4 8 9 12 13 15 | 633
2'F-ANA at 1 2 3 4 5 7 10 13 | 48.1
2'F-ANA at 1 3 4 6 7 8 10 15 | 66
2'F-ANA at 3 4 8 9 11 12 14 15 | 285
2'F-ANA at 11 13 | 483
2'F-ANA at 4 5 7 8 11 13 | 53.5
2'F-ANA at 1 2 4 5 6 7 8 9 13 15 | 70.7
2'F-ANA at 4 9 10 15 | 82.8
2'F-ANA at 1 2 4 7 10 12 13 14 | 44.9
2'F-ANA at 1 2 3 4 5 7 9 10 11 12 14 | 48.5
2'F-ANA at 1 2 4 5 7 8 9 10 14 15 | 47.8
2'F-ANA at 2 3 6 7 8 10 12 15 | 406
2'F-ANA at 1 2 3 4 5 7 11 15 | 52.7
2'F-ANA at 1 2 5 6 8 9 10 12 | 65.9
2'F-ANA at 2 5 6 7 8 9 10 12 13 14 | 85.1
2'F-ANA at 1 2 3 4 5 8 11 13 14 | 47.3
2'F-ANA at 1 2 4 6 7 8 9 12 14 15 | 63.8

For quick reference, copied from above (study 2):
Variant | relative binding score
Y141D | -1.28%
D92Q | 5.32%
G21T | 54.4%
I133P | 81.6%
E147Y | 39.8%
C25F | -14%
